Measurements pooled from the literature.
Numbers after ± are the reported error.
Technique: steady-state kinetics
B1: alanine racemase H166F (Geobacillus stearothermophilus, UniProt P10724); chain MNDFHRDTWAEVDLDAIYDNVENLRRLLPDDTHIMAVVKANAYGHGDVQVARTALEAGASRLAVAFLDEALALREKGIEAPILVLGASRPADAALAAQQRIALTVFRSDWLEEASALYSGPFPIHFHLKMDTGMGRLGVKDEEETKRIVALIERHPHFVLEGLYTFFATADEVNTDYFSYQYTRFLHMLEWLPSRPPLVHCANSAASLRFPDRTFNMVRFGIAMYGLAPSPGIKPLLPYPLKEAFSLHSRLVHVKKLQPGEKVSYGATYTAQTEEWIGTIPIGYADGWLRRLQHFHVLVDGQKAPIVGRICMDQCMIRLPGPLPVGTKVTLIGRQGDEVISIDDVARHLETINYEVPCTISYRVPRIFFRHKRIMEVRNAIGRGESSA
B2: protein G95D/P94L (Streptomyces coelicolor, UniProt P16544); chain MATQDSEVALVTGATSGIGLEIARRLGKEGLRVFVCARGEEGLRTTLKELREAGVEADGRTCDVRSVPEIEALVAAVVERYGPVDVLVNNAGRLDGGATAELADELWLDVVETNLTGVFRVTKQVLKAGGMLERGTGRIVNIASTGGKQGVVHAAPYSASKHGVVGFTKALGLELARTGITVNAVCPGFVETPMAASVREHYSDIWEVSTEEAFDRITARVPIGRYVQPSEVAEMVAYLIGPGAAAVTAQALNVCGGLGNY
B3: enzyme (Vitis vinifera, UniProt F6HSW4); chain MAVDSGLSSPLGPPACEKDAKALQFIEEMTRNPDQVQEKILAEILSQNGETEYLQRFKLAGATDRDTFKSKVPVVTYEDLQPDIQRIANGDRSPILSSHPISEFLTSSGTSAGERKLMPTIHEEWDRRQKLYSLLMPVMNLYVPGLDKGKGLYFLFVKSETKTPSGLVARPVLTGYYRSEHFKKRPYDPYNVYTSPDEAILCVDSFQSMYAQMLCGLLMHKEVLRVGAVFASGLLRAIRFLQVHWQQLAHDISTGILNPKITDPSVREGLAGILKPSQELADFIIQECSGGNWERIITRIWPNTKYLDVIVTGAMAQYIPTLDYFSGGIPLACTMYASSECYFGLNLKPMSKPSEVSYTIMPNMGYFEFLPHDPSAPPLSRDSPPRLVDLADVEVGKEYELVITTYAGLCRYRVGDILQVTGFHNSAPQFQFIRRKNVLLSIDSDKTDEAELQKAVENASLLLREFNTSVVEYTSFADTKTIPGHYVIYWELLVKDPSNSPTDTVLKQCCLAMEESLNTVYRQGRVADNSIGPLEIRVVKSGTFEELMDYAISRGASINQYKVPRCVNFTPIMELLDSRVLSTYFSPAAPHWTPERRRTD
B4: protein (UniProt A0A4Y6I1F8); chain MGSEVVSKKHEFGALEVEGIDFRASVAALGSTKKLVLGGAGFRGLEINGNLVKFTAIGIYVEEAIIPHLSPKLGGKTVEELCANELLFEEVLSAPFDKLIRVVFLLPLTGPQYSEKVVERIGLLPNPGLKEESIKQFLEIFKAENFPPRTSLVCSFTEDGLKIAFMKGPDFPEESDAVIEDKYFARAFLATIIAKDGVSPMAKLSFAERVSKYL
B5: sacB Y196F/Y247F (Priestia megaterium, UniProt D5DC07); chain KGNDSKDFNNSYGISHITRDNMVKIPQQQNSDQFKVPAFDESTIKNIASAKGKNASGNTIDLDVWDSWPLQNADGTVATYHGYQIVFALAGDPKDSNDTSVYLFYKKAGDKSIDSWKNAGRVFKDSDKFVPNDPHLKNQTQEWSGSGTLTKDGKVRLFYTDYSGKQFGKQTLTTAQVNMSQPNDNTLKVDGVEDYKSIFDGDGKIYQTVQQFIDEGGFDTGDNHTLRDPHYIEDNGHKYLVFEANTGTEDGYQGEDSLYNRAYYGGNNPFFQSEKKKLLEGSNKEKASLANGALGIIELNDDYTLKKVMKPLITSNTVTDEIERANIFKKDGKWYLFTDSRGSKMTIDGIGQDDVYMLGYVSNTLTGKYKPLNDTGLVLHMDLDPNDKTFTYSHFAVPQTKGDNVVITSYMTNRGFYEDNHSTFAPSFLVNIDGSKTSVVKDRVLEQGQLTVDED
B6: cyc1 F95M (Streptomyces coelicolor, UniProt Q9K499); chain MHAFPHGTTATPTAIAVPPSLRLPVIEAAFPRQLHPYWPKLQETTRTWLLEKRLMPADKVEEYADGLCYTDLMAGYYLGAPDEVLQAIADYSAWMFVWDDRHDRDIVHGRAGAWRRLRGLLHTALDSPGDHLHHEDTLVAGFADSVRRLYAFLPATWNARFARHFHTVIEAYDREFHNRTRGIVPGVEEYLELRRLTFAHWIWTDLLEPSSGCELPDAVRKHPAYRRAALLSQEFAAWYNDLCSLPKEIAGDEVHNLGISLITHHSLTLEEAIGEVRRRVEECITEFLAVERDALRFADELADGTVRGKELSGAVRANVGNMRNWFSSVYWFHHESGRYMVDSWDDRSTPPYVNNEAAGEK
B7: GTPBP3 A322P (Homo sapiens, UniProt Q969Y2); chain TRRSSGAPAPGSGATIFALSSGQGRCGIAVIRTSGPASGHALRILTAPRDLPLARHASLRLLSDPRSGEPLDRALVLWFPGPQSFTGEDCVEFHVHGGPAVVSGVLQALGSVPGLRPAEAGEFTRRAFANGKLNLTEVEGLADLIHAETEAQRRQALRQLDGELGHLCRGWAETLTKALAHVEAYIDFGEDDNLEEGVLEQADIEVRALQVALGAHLRDARRGQRLRSGVHVVVTGPPNAGKSSLVNLLSRKPVSIVSPEPGTTRDVLETPVDLAGFPVLLSDTAGLREGVGPVEQEGVRRPRERLEQADLILAMLDASDLASPSSCNFLATVVASVGAQSPSDSSQRLLLVLNKSDLLSPEGPGPGPDLPPHLLLSCLTGEGLDGLLEALRKELAAVCGDPSTDPPLLTRARHQHHLQGCLDALGHYKQSKDLALAAEALRVARGHLTRLTGGGGTEEILDIIFQDFCVGK
B8: protein F222A (Planktothrix agardhii, UniProt F5B6Z0); chain MIVNVIQKDRLKEQKLQFIRNHQQAFDVEPIYPLPLFEDFVTSIEGDCSLEASCKIESDKLIASRFLLFFEDKTQEWQKYLHQSLTFFGLVENRVGVKINYSLLQQFLGSSFDFSKVTVLSAGIDLRNNLAESSLKMHIRIKDYPEKLDKAFALSDGAADGNYLKDFVNLIGFDFYFNGKSEIEIYAEVQEDDFFKPEINNLVWQHFPKTALQPLKASSLFATGLSKANNNPVLYYHLKNRQDLTNYFKLNDTAQRVHSFYQHQDILPYMWVGTAQKELEKTRIENIRLYYYKSFKMESN
B9: PduO (Limosilactobacillus reuteri, UniProt Q50EJ2); chain MKIYTKNGDKGQTRIIGKQILYKNDPRVAAYGEVDELNSWVGYTKSLINSHTQVLSNELEEIQQLLFDCGHDLATPADDERHSFKFKQEQPTVWLEEKIDNYTQVVPAVKKFILPGGTQLASALHVARTITRRAERQIVQLMREEQINQDVLIFINRLSDYFFAAARYANYLEQQPDMLYRNSKDVFR
UniProt P22303, sequence (whole entry, looked up): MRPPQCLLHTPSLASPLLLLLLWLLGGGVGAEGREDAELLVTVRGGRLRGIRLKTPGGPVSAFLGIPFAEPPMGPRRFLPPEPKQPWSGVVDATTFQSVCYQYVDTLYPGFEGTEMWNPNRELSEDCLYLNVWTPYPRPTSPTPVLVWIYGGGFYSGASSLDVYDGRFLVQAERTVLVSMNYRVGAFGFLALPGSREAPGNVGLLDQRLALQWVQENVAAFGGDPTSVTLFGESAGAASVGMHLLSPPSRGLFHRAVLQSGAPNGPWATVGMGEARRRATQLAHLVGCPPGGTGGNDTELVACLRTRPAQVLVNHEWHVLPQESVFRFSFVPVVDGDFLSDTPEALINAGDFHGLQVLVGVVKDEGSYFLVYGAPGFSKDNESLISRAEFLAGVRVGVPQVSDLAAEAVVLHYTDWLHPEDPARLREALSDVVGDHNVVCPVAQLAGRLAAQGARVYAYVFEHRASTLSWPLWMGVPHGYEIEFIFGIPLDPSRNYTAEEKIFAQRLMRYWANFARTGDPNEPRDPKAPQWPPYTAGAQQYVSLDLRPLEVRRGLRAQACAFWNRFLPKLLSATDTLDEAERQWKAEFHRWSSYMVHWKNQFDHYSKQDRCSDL
UniProt Q6PHW0, sequence (whole entry, looked up): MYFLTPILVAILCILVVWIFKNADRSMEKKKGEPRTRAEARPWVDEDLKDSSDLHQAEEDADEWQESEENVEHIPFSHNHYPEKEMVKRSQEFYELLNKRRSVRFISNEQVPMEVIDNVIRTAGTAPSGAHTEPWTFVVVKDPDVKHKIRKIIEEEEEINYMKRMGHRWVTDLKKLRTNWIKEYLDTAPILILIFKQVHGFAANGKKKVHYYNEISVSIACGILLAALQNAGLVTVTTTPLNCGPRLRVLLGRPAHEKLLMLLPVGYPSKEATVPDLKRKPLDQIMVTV

B1 (alanine racemase H166F)
kcat/Km (C[C@@H](N)C(=O)O; pH 9, room temperature, together with: NAD+ 10 mM): 1000 M⁻¹ s⁻¹

alanine aminopeptidase (Neisseria meningitidis, UniProt Q9JYV4)
kcat/Km (NC(=O)Cc1cc(=O)oc2cc(NC(=O)[C@@H](N)Cc3ccc(Cl)cc3)ccc12; pH 7.5, 37 °C): 34000 ± 1000 M⁻¹ s⁻¹

B2 (protein G95D/P94L)
kcat/Km (O[C@H]1CCCc2ccccc21; pH 7.4, phosphate 400 mM, NADPH 250 µM printed, together with: NADP+, reverse reaction): 32 ± 1 M⁻¹ s⁻¹

B3 (enzyme)
kcat/Km (O=C(O)Cc1c[nH]c2ccccc12; pH 8.6, 25 °C): 19100 M⁻¹ s⁻¹

IYD (Homo sapiens, UniProt Q6PHW0)
kcat/Km (COc1cc(C[C@H](N)C(=O)O)cc(I)c1O; pH 7.4, 25 °C, together with: sodium dithionite 0.5%): 9000 ± 3000 M⁻¹ s⁻¹

protein (Sinorhizobium meliloti, UniProt Q92WA3)
kcat/Km (O=c1ccn([C@@H]2O[C@H](COP(=O)(O)OP(=O)(O)O[C@H]3OC[C@@H](O)[C@H](O)[C@H]3O)[C@@H](O)[C@H]2O)c(=O)[nH]1; pH 7.6, 37 °C, together with: NAD+ 1 mM): 42100 ± 1700 M⁻¹ s⁻¹

enzyme (Trypanosoma brucei, UniProt Q8WQX5)
kcat/Km (O=c1ccn([C@@H]2O[C@H](COP(=O)(O)OP(=O)(O)OP(=O)(O)O)[C@@H](O)[C@H]2O)c(=O)[nH]1; pH 8, 27 °C, apparent): 60000 M⁻¹ s⁻¹

protein (Clostridioides difficile, UniProt Q18B70)
kcat/Km (C[C@@H](O)[C@H](N)C(=O)O; pH 8, 37 °C, together with: AcCoA 1 mM, L-Thr 0-10 mM): 1400 M⁻¹ s⁻¹

B4 (protein)
kcat/Km (O=C(/C=C/c1ccc(O)cc1)c1ccc(O)cc1O): 6900 M⁻¹ s⁻¹

B5 (sacB Y196F/Y247F)
kcat/Km (OC[C@H]1O[C@@](CO)(O[C@H]2O[C@H](CO)[C@@H](O)[C@H](O)[C@H]2O)[C@@H](O)[C@@H]1O; pH 6.9): 18400 M⁻¹ s⁻¹

enzyme (Streptomyces filamentosus, UniProt A0ABY4UVI6)
kcat/Km (CSc1c(O)cc(-c2ccccn2)nc1C(=O)N[C@@H](CC(C)C)C(=O)O; pH 8, 30 °C): 111 M⁻¹ s⁻¹

B6 (cyc1 F95M)
kcat/Km (CC(C)=CCC/C(C)=C/CC/C(C)=C/CO[P@@](=O)(O)OP(=O)(O)O; pH 6.5, 30 °C, together with: MgCl2 10 mM): 11500 ± 500 M⁻¹ s⁻¹

B7 (GTPBP3 A322P)
kcat/Km (Nc1nc2c(ncn2[C@@H]2O[C@H](COP(=O)(O)OP(=O)(O)OP(=O)(O)O)[C@@H](O)[C@H]2O)c(=O)[nH]1; pH 8, 37 °C, KCl 300 mM): 81.7 M⁻¹ s⁻¹

ACHE (Homo sapiens, UniProt P22303)
kcat/Km (CC(=O)SCC[N+](C)(C)C; pH 8, 22 °C): 6.48e+07 ± 6.47e+06 M⁻¹ s⁻¹

B8 (protein F222A)
kcat/Km (CC(C)=CCOP(=O)(O)OP(=O)(O)O; together with: tri-Tyr peptide acceptor): 38.5 M⁻¹ s⁻¹

B9 (PduO)
kcat/Km (Nc1ncnc2c1ncn2[C@@H]1O[C@H](COP(=O)(O)OP(=O)(O)OP(=O)(O)O)[C@@H](O)[C@H]1O; pH 8, 37 °C, anoxic, together with: cob(I)alamin): 12000 ± 1000 M⁻¹ s⁻¹

A few entries again:
B2 (protein G95D/P94L)
kcat/Km (O[C@H]1CCCc2ccccc21; pH 7.4, phosphate 400 mM, NADPH 250 µM printed, together with: NADP+, reverse reaction): 32 ± 1 M⁻¹ s⁻¹
